Measured values pooled from the literature.
Numbered parts are unrelated; each lists some results of a single study. Positions count from the first letter of the parent shown.

Study 1 — target: MAFG, bZIP domain (human); method: DHFR protein complementation; medium: yeast; relative to: wild-type JUN-FOS pair; reading: higher = stronger binding
Setting: single substitutions, most at no-binding floor
Starting sequence: JUN, bZIP domain (human); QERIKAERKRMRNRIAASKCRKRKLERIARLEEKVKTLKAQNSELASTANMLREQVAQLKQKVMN; partner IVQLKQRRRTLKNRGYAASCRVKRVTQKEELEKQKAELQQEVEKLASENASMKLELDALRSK
Substitution | binding fitness [natural log]
L45S | -1.53
E54K | -1.56
T37V | -1.4
E33F | -1.55
K34H | -1.42
Q55P | -1.53
R53V | -1.48
A40C | -1.27
L38R | -1.44
E54R | -1.5
K36E | -1.52
L45F | -1.53
K34F | -1.45
L45Y | -1.47
A46Q | -1.5
K39L | -1.46
E33Q | -1.24
E44K | -1.49
Q55R | -1.21

Study 2 — method: DHFR PCA, deep sequencing; medium: yeast; together with: (+)-ABA 0.032 µM; relative to: wild-type fitted maximum; reading: higher = stronger binding
Target: ABI1, truncated, D143A, DHFR fusion (Arabidopsis thaliana)
Setting: methotrexate growth selection, single substitutions
Starting sequence: PYL1, truncated, DHFR fusion (Arabidopsis thaliana); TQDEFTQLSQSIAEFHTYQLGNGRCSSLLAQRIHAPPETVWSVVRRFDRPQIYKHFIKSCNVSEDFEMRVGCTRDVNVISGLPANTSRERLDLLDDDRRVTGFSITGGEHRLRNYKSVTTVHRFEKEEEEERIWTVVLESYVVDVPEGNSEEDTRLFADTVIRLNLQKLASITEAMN
Substitution | relative binding score [%]
S117D | -2.25
E128H | 64.3
K58I | -0.178
E127H | 47.7
N114L | -0.122
P37S | 1.82
V44E | -0.715
F124I | 57.8
A35M | 2.3
F56W | 1.8
S63R | 19.7
Q51C | -2.51
P50Q | -3.62
D95E | -4.59
I12V | 8.03
L20H | 44.4
D92L | -4.22

Study 3 — target: CCNA2, cyclin fold, Cln2 fusion (human); method: yeast growth competition, sequencing; medium: yeast; setting: weak parent motif; relative to: not given; reading: higher = stronger binding
Starting sequence: RP1L1 docking peptide (human); TLGLGPLSFTLED
Substitution | normalised enrichment score
G3A | -0.426
P6A | -0.581
D13A | -0.558
L4A | -0.775
L11A | -0.46
L7A | -0.303
S8A | -0.605

Study 4 — method: RNA Bind-n-Seq; form: RNA; medium: in vitro; tested at: 100 nM; relative to: input RNA pool; reading: higher = stronger binding
Target: RING finger protein unkempt homolog, zinc fingers 1-6, SBP tag (UNK, Homo sapiens, UniProt Q9C0B0, residues 30-357)
UniProt Q9C0B0, sequence (30-357, looked up): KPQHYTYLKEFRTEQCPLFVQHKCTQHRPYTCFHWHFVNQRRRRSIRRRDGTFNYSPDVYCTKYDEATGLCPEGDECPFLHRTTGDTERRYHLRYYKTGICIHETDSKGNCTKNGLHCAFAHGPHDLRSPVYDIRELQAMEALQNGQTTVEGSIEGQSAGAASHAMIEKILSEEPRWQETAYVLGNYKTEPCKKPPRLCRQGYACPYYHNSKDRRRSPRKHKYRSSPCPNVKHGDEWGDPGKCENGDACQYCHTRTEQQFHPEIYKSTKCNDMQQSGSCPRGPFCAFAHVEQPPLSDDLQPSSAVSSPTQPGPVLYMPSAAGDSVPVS
Setting: RNA with constant flanks, vertebrate orthologous sites, ends assumed
Constant ends, left off below: GGGAGUUCUACAGUCCGACGAUC … CAACAGAGGAUUGAGCAUCA
Sequence | bound/input enrichment [ratio]
GGGCGGCCCGUGGGGGAAUUCCCUGCCUUGGCCUUACCUCCCCUUCCUGCCACUUGCCCCUAGUUAUUUUUUUUUUUACCACCAUGUGAUUAAGGUCGGCGCUGCCUCCCCCGACCCACU | 6.69
UUACAGUCAUUGAUGGACUCUAUUUUUUUAUUAUUACUUGGACCUUGGUCGUUUUUAUACUAGCAAAAUGUCUUGUUUUAAUUUGUGUUUUUUGGGGGAGGGAGUGAACUUGCUGAUUCU | 2.51
AGUAGUUUUAAGCUUGUUUGCACAGUUAUUUUUUUCCAUUGGAAAUGGAAUUCAUUGCCUUAGGUCUUUUUAAAUAGUGUAUUAUCGUUGGGGCUGGCUCUAUGCUUGAAAACCAGUUUA | 3.04
CUAGCCGCCUGGGAGAAAUGGAUGCUGGCCGGGAACAAACAGCGAAUCUCGGGUACGCUGCUACCCUCUGCACUACGGGGAAGUGGCUGUCCCUUCCCUGCUGGAGCCAGCUCUGUUUGG | 0.334
GCCCAGCACUUUGGUAAAAAGUGUGGACUGGCUGCUUGUAUUUUCCUUAUUCUUUCUGAUUAGUUUCAUUAUGUACGCCACCAUUCGAACUGAGAAUAUUAGGUGGCUAAUUCCGGGACA | 1.4
UAUGUGUUGGUGCAGCGUGCUCUGUACCAGUGUUCAUCAUCCCUUCAUACCAACUGUCCCUAGUUAUAGGAAUUUAAUAUUUUUAAAAGUUUUACAUUGCUGUAUAUUCAAAGAUUUGUU | 1.03
CUACUCUAAACAACUCAGGGCAGUACUCUCGAUAUCCUUACAGUAACCUAAAUCAGGGAUUAGUUAACAAUACAGGGAUGAAUCAAAAUUUAGGCCUUACAAACAAUACUCCAAUGAACC | 1.75
CAGUCAUGGAGAAAAACAUAUUAAAAUAACUUCAUGGCACUGAUGUUAAUUCUAGUCUAUUAGUUUUAUAAAAGUUAGGAUUCUUAUUUAGGAACAACAGGAAAUGACUGUUAAGGAGAA | 0.823

Some of these lines once more (study 3):
Substitution | normalised enrichment score
S8A | -0.605
L11A | -0.46
L4A | -0.775
